Experimental data of several laboratories.
Each numbered part is a random draw from the data of one study; scales do not carry over between parts. Substitutions count along the parent as printed.
UniProt P43250, sequence (whole entry, looked up): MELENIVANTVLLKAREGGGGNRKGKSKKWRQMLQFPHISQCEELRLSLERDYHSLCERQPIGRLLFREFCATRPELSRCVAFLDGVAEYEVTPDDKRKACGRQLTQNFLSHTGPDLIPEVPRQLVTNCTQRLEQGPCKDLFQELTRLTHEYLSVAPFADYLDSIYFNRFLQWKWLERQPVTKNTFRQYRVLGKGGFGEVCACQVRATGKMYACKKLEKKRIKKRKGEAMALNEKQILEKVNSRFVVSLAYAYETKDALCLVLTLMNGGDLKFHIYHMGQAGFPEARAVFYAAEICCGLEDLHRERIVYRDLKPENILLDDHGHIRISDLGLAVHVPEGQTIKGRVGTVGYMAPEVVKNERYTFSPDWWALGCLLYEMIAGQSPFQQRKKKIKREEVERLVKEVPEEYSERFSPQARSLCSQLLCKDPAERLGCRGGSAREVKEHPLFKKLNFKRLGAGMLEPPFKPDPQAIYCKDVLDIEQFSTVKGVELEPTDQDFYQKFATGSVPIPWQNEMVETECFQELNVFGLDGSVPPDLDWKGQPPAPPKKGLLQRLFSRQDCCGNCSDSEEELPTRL

Set 1
Target: Ras GTPase-activating protein-binding protein 1, RRM domain (G3BP1, Homo sapiens, UniProt Q13283)
UniProt Q13283, sequence (whole entry, looked up): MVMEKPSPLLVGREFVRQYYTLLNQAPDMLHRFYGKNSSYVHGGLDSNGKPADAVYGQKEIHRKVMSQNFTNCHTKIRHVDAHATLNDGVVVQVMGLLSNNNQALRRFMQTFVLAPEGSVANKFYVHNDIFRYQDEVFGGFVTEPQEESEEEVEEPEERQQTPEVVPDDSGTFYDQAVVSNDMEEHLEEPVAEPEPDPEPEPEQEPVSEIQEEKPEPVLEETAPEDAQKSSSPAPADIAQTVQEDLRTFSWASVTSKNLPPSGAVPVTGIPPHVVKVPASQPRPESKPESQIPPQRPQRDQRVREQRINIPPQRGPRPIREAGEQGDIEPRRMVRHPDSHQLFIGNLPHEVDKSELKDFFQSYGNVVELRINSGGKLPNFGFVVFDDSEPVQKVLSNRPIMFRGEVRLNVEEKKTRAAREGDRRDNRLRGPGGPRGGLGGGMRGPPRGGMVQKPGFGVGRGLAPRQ
Method: RNA Bind-n-Seq
Molecule type: RNA
Sample: in vitro
Concentration: 1 µM
Notes: whole 134-nt RNA, ends assumed
Together with: 150 mM KCl
Relative to: input library
Reading: higher = stronger binding
Shared flanks, not repeated: GGGAGUUCUACAGUCCGACGAUC … UGGAAUUCUCGGGUGUCAAGG
Sequence | log2 enrichment
UCCUGUGCUACACAUCGUAUGUACCGAAUCGGGGUGGGGAAAAAAAGGGGUUUUUGGGGAAAGUAUUAUGUUACGCCGUUCGGAUCUGCA | 0.865
UGGGAGGUGGAUUUUGUUUAUUUUUUUAGCUUAUUUCCAGGGGUGGGAAUUUUUUUUUAAUAUGUGUCAUGAAUAAAGUUGUUUUUGAAA | 1.96
GCAGGAAGUAAAAACAAAUGGAAAUGCUUCGGAUAGUGGCAGGGGUGGGGGUUGCUAAGGAAAGGGUGGGAUGGGAUUGGGUAAAGAGUU | 1.45
AGUCCUGUGCUACACAUCGUAUGUACCGAAUCGGGGAAAAAGGGGUUUGGGGUGGGGAAAGUAUUAUGUUACGCCGUUCGGAUCUGCACU | 1.12
UGGCCCUGGUGGCAUGCGGGGAGGUAGAGGUGGCCUCAUGGAUCGUGGUGGUCCCGGUGGAAUGUUCAGAGGUGGCCGUGGUGGAGACAG | 0.975
CCUCAAGUCCUGUGCUACACAUCGUAUGUACCGAAUCGGAAAGGAGGAAAGGAAAGUAUUAUGUUACGCCGUUCGGAUCUGCACUUCCAG | -0.159
UCCUGUGCUACACAUCGUAUGUACCGAAUCGGGAAAAAAGGGGAAAAAAGGAAAAAAGGAAAGUAUUAUGUUACGCCGUUCGGAUCUGCA | -0.0327
CCUGUGCUACACAUCGUAUGUACCGAAUCGGGGUUUUUUUGGUUUUUUUGGUUUUUUUGGGAAAGUAUUAUGUUACGCCGUUCGGAUCUG | -0.305

Set 2
Target: CCND2, cyclin fold, Cln2 fusion (human)
Method: yeast growth competition, sequencing
Sample: yeast
Notes: weak parent motif
Relative to: not given
Reading: higher = stronger binding
Starting sequence: E2F8 docking peptide (human); FVPQRKLEVSTED
Change | normalised enrichment score
E12A | -0.049
E8A | 0.151
P3A | 0.132
V2A | 0.144
V9L | -0.356
R5A L7A | 0.0931
L7A | 0.144
V9A | 0.0912

Set 3
Target: Transcriptional repressor CTCF (CTCF, Homo sapiens, UniProt P49711, residues 1-727, full length assumed)
UniProt P49711, sequence (whole entry, looked up): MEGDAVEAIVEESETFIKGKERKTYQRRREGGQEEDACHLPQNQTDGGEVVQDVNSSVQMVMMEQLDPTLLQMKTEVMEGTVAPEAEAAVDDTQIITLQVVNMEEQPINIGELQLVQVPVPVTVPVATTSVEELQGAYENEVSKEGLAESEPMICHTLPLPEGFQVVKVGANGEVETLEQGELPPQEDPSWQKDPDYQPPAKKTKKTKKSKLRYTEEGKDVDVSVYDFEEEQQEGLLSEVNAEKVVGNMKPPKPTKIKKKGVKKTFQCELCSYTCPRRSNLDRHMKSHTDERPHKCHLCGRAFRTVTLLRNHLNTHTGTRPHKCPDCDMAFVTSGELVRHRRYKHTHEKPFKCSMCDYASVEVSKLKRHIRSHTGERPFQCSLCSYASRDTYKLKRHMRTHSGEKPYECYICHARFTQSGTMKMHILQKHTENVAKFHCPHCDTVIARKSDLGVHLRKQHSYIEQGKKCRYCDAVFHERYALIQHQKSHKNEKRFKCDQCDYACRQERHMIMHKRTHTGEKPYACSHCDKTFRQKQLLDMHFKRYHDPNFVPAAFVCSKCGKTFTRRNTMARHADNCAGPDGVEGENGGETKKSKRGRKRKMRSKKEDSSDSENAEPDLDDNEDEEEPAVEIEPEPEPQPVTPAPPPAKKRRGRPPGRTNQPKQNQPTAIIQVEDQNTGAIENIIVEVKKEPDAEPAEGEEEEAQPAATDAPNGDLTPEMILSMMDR
Method: protein-binding microarray
Molecule type: double-stranded DNA, one strand shown
Sample: in vitro
Concentration: not given
Notes: k-mer, scored over probes, only values ≥0.25
Reading: higher = stronger binding
Sequence | E-score
GGATTGCA | 0.292
TATAACAA | 0.31
CTTATAAC | 0.322
CCCCGCCA | 0.285
ATTAGTTA | 0.32
ATATTACC | 0.359
ATATCTAC | 0.328
AATAATCG | 0.272

Other studies, line by line
SMILES | target | assay | setting | scale | endpoint | value
Oc1ccc(Nc2nc(-c3ccc(Cl)cc3)cs2)cc1 | G protein-coupled receptor kinase 6 (GRK6, Homo sapiens, UniProt P43250) | enzyme activity, inhibitor | 0.5 µM | relative to: control | remaining activity | 100%
